Published values gathered from unrelated publications.
Each line is one published result; not all experiments were run side by side. “And” joins repeats or separate records; there may be more than shown. ± gives the spread as reported.
Genome polyprotein NS3 helicase domain: Genome polyprotein, NS3 helicase domain (Hepatitis C virus genotype 1b, UniProt Q9WMX2)
SSTR5: Somatostatin receptor type 5 (SSTR5, Homo sapiens, UniProt P35346)
Chain of UniProt P35346 (whole entry, looked up): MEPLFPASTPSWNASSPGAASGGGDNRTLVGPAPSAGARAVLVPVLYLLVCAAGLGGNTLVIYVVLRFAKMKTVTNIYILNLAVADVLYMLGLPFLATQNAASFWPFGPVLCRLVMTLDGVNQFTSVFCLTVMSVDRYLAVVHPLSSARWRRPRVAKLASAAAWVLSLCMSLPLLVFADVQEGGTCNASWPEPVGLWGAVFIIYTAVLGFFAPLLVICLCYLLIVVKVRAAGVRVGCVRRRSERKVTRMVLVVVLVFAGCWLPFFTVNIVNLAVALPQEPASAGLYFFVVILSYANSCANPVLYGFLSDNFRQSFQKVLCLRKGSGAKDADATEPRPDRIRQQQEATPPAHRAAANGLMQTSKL
SRC SH3-SH2-kinase domain: Proto-oncogene tyrosine-protein kinase Src, SH3-SH2-kinase domain (SRC, Gallus gallus, UniProt P00523)
Chain of UniProt Q2HRB6 (whole entry, looked up): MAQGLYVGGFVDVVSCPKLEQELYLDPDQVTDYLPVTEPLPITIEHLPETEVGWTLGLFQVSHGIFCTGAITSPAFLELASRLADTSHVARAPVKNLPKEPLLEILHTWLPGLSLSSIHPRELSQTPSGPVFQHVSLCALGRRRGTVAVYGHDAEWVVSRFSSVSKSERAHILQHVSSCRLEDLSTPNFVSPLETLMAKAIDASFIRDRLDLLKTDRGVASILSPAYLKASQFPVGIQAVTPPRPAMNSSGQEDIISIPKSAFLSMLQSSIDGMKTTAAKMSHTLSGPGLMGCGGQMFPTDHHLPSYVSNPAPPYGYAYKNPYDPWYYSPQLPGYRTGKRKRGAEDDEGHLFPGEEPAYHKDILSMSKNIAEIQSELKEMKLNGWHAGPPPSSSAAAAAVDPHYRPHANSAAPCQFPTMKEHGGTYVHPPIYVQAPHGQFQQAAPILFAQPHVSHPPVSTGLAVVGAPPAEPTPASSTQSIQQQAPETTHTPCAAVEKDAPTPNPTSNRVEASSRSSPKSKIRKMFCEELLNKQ
Chain of UniProt P25103 (whole entry, looked up): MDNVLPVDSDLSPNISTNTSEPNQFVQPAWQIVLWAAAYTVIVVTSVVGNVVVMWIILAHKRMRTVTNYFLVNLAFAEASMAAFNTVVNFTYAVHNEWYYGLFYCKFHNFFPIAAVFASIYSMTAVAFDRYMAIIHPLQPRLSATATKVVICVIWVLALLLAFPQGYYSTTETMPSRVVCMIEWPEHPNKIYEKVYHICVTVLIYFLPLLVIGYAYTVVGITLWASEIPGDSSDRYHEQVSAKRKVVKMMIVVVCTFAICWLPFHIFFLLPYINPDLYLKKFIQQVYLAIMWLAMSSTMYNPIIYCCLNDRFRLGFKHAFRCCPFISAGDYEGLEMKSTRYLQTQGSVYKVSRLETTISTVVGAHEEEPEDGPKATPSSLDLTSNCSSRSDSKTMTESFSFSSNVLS
Chain of UniProt P48995 (whole entry, looked up): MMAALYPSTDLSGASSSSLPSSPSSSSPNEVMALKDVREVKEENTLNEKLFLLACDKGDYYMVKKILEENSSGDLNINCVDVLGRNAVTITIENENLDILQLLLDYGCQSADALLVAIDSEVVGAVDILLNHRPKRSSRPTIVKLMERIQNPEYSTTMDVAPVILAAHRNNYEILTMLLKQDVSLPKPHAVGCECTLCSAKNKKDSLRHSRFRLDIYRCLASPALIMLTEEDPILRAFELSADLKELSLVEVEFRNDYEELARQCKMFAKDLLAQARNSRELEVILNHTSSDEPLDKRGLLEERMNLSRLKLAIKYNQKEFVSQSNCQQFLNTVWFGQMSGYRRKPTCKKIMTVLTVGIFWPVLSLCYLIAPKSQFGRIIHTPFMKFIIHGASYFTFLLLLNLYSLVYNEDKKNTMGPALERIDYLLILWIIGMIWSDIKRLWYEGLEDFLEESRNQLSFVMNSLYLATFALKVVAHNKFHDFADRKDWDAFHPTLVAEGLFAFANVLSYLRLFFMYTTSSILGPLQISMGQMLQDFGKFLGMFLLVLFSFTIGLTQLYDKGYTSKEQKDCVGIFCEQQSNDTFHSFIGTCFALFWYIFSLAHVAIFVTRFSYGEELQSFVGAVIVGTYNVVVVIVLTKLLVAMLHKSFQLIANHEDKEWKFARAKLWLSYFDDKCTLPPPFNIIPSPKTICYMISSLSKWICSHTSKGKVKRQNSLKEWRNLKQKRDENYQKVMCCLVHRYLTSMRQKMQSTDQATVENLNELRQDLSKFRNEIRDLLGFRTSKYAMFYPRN

`COc1ccc(C(C)=O)cc1CC(=O)N1CCC(C(=O)Nc2ccc(Br)cn2)CC1` gave an IC50 of ~25 µM (Trypanothione synthetase (Trypanosoma brucei brucei, UniProt Q586P2); enzyme activity, BIOMOL Green phosphate release; 1 h preincubation).
The IC50 of `COP(=O)(OC)OCC1(O)O[C@H](COP(=O)(O)O)[C@@H](O)[C@@H]1O` (stereo partly shown) is reported as 1080 µM (Phosphoglycerate mutase 1 (Homo sapiens, UniProt P18669); enzyme activity, inhibitor).
`Cc1nc(Nc2ncc(C(=O)Nc3c(C)cccc3Cl)s2)cc(N2CCN(CCOC(=O)CCCCCCCCCCN)CC2)n1` has an IC50 of 0.0049 µM (ABL1 (Homo sapiens, UniProt P00519)).
For `CCCCCCCCCCCCCCCC(=O)OC[C@H](NC(=O)CNC(=O)CNc1ccc([N+](=O)[O-])c2nonc12)C(=O)N[C@H](C(=O)N[C@@H](CCCCN)C(=O)N[C@H](C(=O)N[C@@H](CCCCN)C(=O)N[C@@H](CCCCN)C(N)=O)[C@@H](C)CC)C(C)C`, the IC50 was 20 µM (Palmitoyl-protein thioesterase 1 (Homo sapiens, UniProt P50897); enzyme activity, inhibitor; lymphoblast or fibroblast lysate; pH 4.7, with: MUGS-palmitate).
With `COCCCN1CCc2c(Cc3ccc(Cl)cc3)[nH]c3c(OC(F)F)ccc(c23)C1=O` the IC50 was 0.831 µM (PDE11A (Homo sapiens, UniProt Q9HCR9); enzyme activity, inhibitor).
`CCN(CC)c1ccc(-c2nc3ccc(C)c(S(=O)(=O)O)c3s2)cc1` has an IC50 of > 100 µM (Genome polyprotein NS3 helicase domain; ATPase activity, inhibitor, malachite green).
For `CNC(=O)c1ccc(Oc2nc3c(c(=O)n(C)c(=O)n3C)n2CCC(C)C)cc1`, the IC50 was > 57 µM (ALDH1B1 (Homo sapiens, UniProt P30837)).
The IC50 of `C[C@@H](O)[C@H](NC(=O)CP(=O)(O)OC[C@H]1O[C@@H](n2cnc3c(N)ncnc32)[C@H](O)[C@@H]1O)C(=O)O` is reported as 7.5 µM (tsaD, with TsaB and TsaE (Escherichia coli, UniProt P05852); inhibitor; with: TC-AMP 10 µM, ATP 1 mM).
For `C[C@@H](O)[C@@H]1NC(=O)[C@H](Cc2ccccc2)NC(=O)[C@H]([C@@H](C)O)NC(=O)[C@H](CCCCN)NC(=O)[C@@H](Cc2c[nH]c3ccccc23)NC(=O)[C@H](Cc2ccccc2)NC(=O)[C@H](Cc2ccccc2)NC(=O)[C@H](CC(N)=O)NC(=O)[C@H](NC(=O)[C@@H](N)Cc2ccc(Cl)cc2)CSSC[C@@H](C(=O)N[C@@H](Cc2ccc3ccccc3c2)C(N)=O)NC1=O`, the IC50 was 0.009 µM (SSTR5; ligand displacement, radioligand; pH 8.2, cell membranes).
`NC(=O)[C@@H]1CCCNC(=O)[C@H](Cc2ccc([N+](=O)[O-])cc2)NC(=O)[C@H](Cc2ccccc2)NC(=O)[C@H](Cc2ccccc2)NC(=O)/C=C/C(=O)N1` has an IC50 of 0.22 ± 0.005 µM (SRC SH3-SH2-kinase domain; enzyme activity, inhibitor, Z'-LYTE FRET; Src residues 83-533, with: 50 µM ATP).
`Cc1nc2cc(Nc3nc(Nc4cc(C5CCC5)[nH]n4)c4ccccc4n3)ccc2[nH]1` has an IC50 of > 0.3 µM (ULK1 (Homo sapiens, UniProt O75385); enzyme activity, inhibitor, radiometric).
With `Nc1ncnc2c1c(-c1ccc(Oc3ccccc3)cc1)nn2C1CCCC1` the IC50 was < 0.001 µM (Tyrosine-protein kinase HCK, SH3 (HCK, Homo sapiens, UniProt P08631, K245P/K248P); enzyme activity, inhibitor).
For `CC(C)(C)NCCCNC(=O)c1ccnc(Br)c1`, the IC50 was > 100 µM (PHD finger protein 1 (Homo sapiens, UniProt O43189); methyl-lysine reader binding, inhibitor, AlphaScreen).
For `CC(C)NCc1ccc(C[C@@H]2NC(=O)[C@@H](Cc3c[nH]c4ccccc34)NC(=O)[C@H](Cc3ccccc3)NC(=O)[C@H](NC(=O)[C@@H](N)Cc3ccc(Cl)cc3)CSSC[C@@H](C(=O)N[C@@H](Cc3ccc4ccccc4c3)C(N)=O)NC(=O)[C@H](Cc3ccc(O)c(I)c3)NC2=O)cc1`, the IC50 was > 1 µM (SSTR5; ligand displacement, radioligand; cell membranes).
`CC1CCC(C(C)C)C(OCC(=O)NC(C)c2ccc(-n3cncn3)cc2)C1` (stereo not shown) has an IC50 of 28 µM and 28.2 µM (Trypanothione synthetase (Trypanosoma brucei brucei, UniProt Q586P2); enzyme activity, BIOMOL Green phosphate release; 1 h preincubation).
For `Nc1nc(Cl)nc2c1ncn2Cc1cccc(OCC(F)F)c1`, the IC50 was 0.117 µM (PDE8A (Homo sapiens, UniProt O60658); enzyme activity, inhibitor, radiometric).
`COc1ccc(/C=C/C(=O)O[C@@H]2C[C@](C)(O)[C@H]3[C@H](O[C@@H]4O[C@H](CO)[C@@H](O)[C@H](O)[C@H]4O)OC=C[C@H]32)cc1` has an IC50 of 46.7 µM (XDH (Bos taurus, UniProt P80457); enzyme activity, inhibitor, absorbance).
`CC(C)(O)Cn1nc(-c2ccc3nc(OC(F)F)ccc3c2)c2c(N)ncnc21` has an IC50 of 0.004 µM (Calmodulin-domain protein kinase 1, putative (Cryptosporidium parvum, UniProt A3FQ16); enzyme activity, inhibitor).
`CCNC(=O)[C@@H]1CCNC(=O)[C@H](CCCNC(=O)c2cnccn2)NC(=O)[C@H](Cc2ccccc2)NC(=O)[C@H](CC2CC2)NC(=O)/C=C\C(=O)N1` gave an IC50 of 0.19 ± 0.01 µM (SRC SH3-SH2-kinase domain; enzyme activity, inhibitor, Z'-LYTE FRET; Src residues 83-533, with: 50 µM ATP).
For `CCC(NC(=O)C(CC(C)C)NC(=O)NCc1ccccc1)C(=O)C(=O)NCc1cccc(OC)c1` (stereo not shown), the IC50 was 0.21 µM (Calpain-2 catalytic subunit (Capn2, Mus musculus, UniProt O08529); enzyme activity, inhibitor; mouse pons-cerebellum membranes; with: calcium 2 mM).
The IC50 of `Cc1cccc(Cn2c(CN3CCN(C(=O)C4CC4)CC3)nc3c2c(=O)n(C)c(=O)n3C)c1` is reported as > 57 µM (HPGD (Homo sapiens, UniProt P15428)).
`CCC(CC)[C@H](NC(C)=O)[C@@H]1[C@H](O)[C@@H](C(=O)N[C@H](C(=O)O)[C@@H](C)CC)C[C@H]1NC(=N)N` gave an IC50 of 1780 µM (SLC15A1 (Homo sapiens, UniProt P46059); transporter uptake, inhibitor).
For `Cn1c(=O)n(CCCO)c(=O)c2c1nc(Oc1cccc(C3(C(F)(F)F)N=N3)c1)n2Cc1ccc(Cl)cc1`, the IC50 was 0.0014 µM (TRPC4/TRPC1 (TRPC1/TRPC4, Homo sapiens, UniProt P48995+Q9UBN4); calcium influx, inhibitor, Fura-2; HEK T-REx expressing TRPC1/TRPC4; with: englerin A 30 nM).
With `COC(=O)N1CCC(CN2CCC(CNC(=O)c3cccc4[nH]c(C(C)C)nc34)CC2)CC1` the IC50 was > 10 µM (ABCB11 (Homo sapiens, UniProt O95342); transporter uptake, inhibitor).
The IC50 of `CCN(CC)CC(=O)Nc1cccc(-n2cc(-c3ccc4ccc(-c5cn(-c6cccc(NC(=O)CN(CC)CC)c6)nn5)cc4c3)nn2)c1` is reported as > 10 µM (kinase panel (PI3K, MAPK, mTOR); enzyme activity, inhibitor).
`CC(=O)c1ccc(S(=O)(=O)NCc2csc(-c3ccccc3)n2)cc1` gave an IC50 of 8.7 µM (Trypanothione synthetase (Trypanosoma brucei, UniProt Q586P2); enzyme activity, inhibitor).
With `Cc1ccccc1-c1cc(N2CCN(C(=O)[C@@H](N)CCCNC(=N)N)CC2)ccc1N(C)C(=O)C(C)(C)c1cc(C(F)(F)F)cc(C(F)(F)F)c1` the IC50 was 0.407 µM (TACR1 (Homo sapiens, UniProt P25103); IP1 accumulation, antagonist; 90 min, with: substance P 10 nM).
With `CC1=CC(=C(c2cc(C)c(O)c(C(=O)O)c2)c2cc(C)c(O)c(C(=O)O)c2)C=C(C(=O)O)C1=O` the IC50 was 4.79 µM (DNMT1 (Homo sapiens, UniProt P26358); enzyme activity, inhibitor, radiometric).
For `Cc1ccc2nc(-c3ccc(N=NNc4ccc(-c5nc6ccc(C)c(S(=O)(=O)O)c6s5)cc4)cc3)sc2c1S(=O)(=O)O`, the IC50 was 9 ± 4 µM (Genome polyprotein NS3 helicase domain; protein-DNA complex formation, inhibitor; with: Alexa Fluor 647-dT15 tracer).
The IC50 of `CC(NC(=O)Cn1nc(C(F)(F)F)c2c1CCCC2)c1ccccc1` (stereo not shown) is reported as 5.6 µM (Trypanothione synthetase (Trypanosoma brucei, UniProt Q586P2); enzyme activity, inhibitor).
`CC(OCCCCCN1C[C@H](O)[C@@H](O)[C@H](O)[C@H]1CO)C(C)(C)C` (stereo partly shown) has an IC50 of 6 µM (Ugcg (Mus musculus, UniProt O88693); enzyme activity in cells, inhibitor, fluorescence).
For `O=S(=O)(NCc1csc(-c2ccccc2)n1)c1cc(F)ccc1F`, the IC50 was 6.1 µM (Trypanothione synthetase (Trypanosoma brucei, UniProt Q586P2); enzyme activity, inhibitor).
The IC50 of `O=C(O)c1ccc(Nc2nc(-c3ccc(Cl)c(Cl)c3)cs2)cc1` is reported as 6.75 µM and 6.7 µM (Capsid scaffolding protein, protease domain (Human herpesvirus 8 type P, UniProt Q2HRB6); protease activity, inhibitor; with: fluorogenic peptide substrate).
The IC50 of `CN(C)C/C=C/C(=O)Nc1ccc2nc(NCCCCCN(C)C)nc(NCCCCCCN(C)C)c2c1` is reported as 0.8 µM (SETD2 (Homo sapiens, UniProt Q9BYW2); enzyme activity, inhibitor, radiometric).
`COc1ccc(C(=O)/C=C/c2ccc(O)cc2)c(O)c1CC=C(C)C` gave an IC50 of 12 µM (Dopamine beta-hydroxylase (Homo sapiens, UniProt P09172); enzyme activity, inhibitor).
The IC50 of `CC(C)CCCc1ccc2c(c1)C(=O)C(Br)=C(Br)C2=O` is reported as 13.5 ± 0.6 µM (DNA topoisomerase IB (Leishmania donovani, UniProt A0A3Q8IHS4+Q8WQM6); DNA relaxation activity, inhibitor; with: supercoiled plasmid DNA).
`CCCCn1c(NN)nc2cc3ccccc3cc2c1=O` has an IC50 of 9.08 µM (Genome polyprotein, protease (Hepatitis C virus genotype 1b, UniProt O92972); enzyme activity, inhibitor, FRET).
